Measurements gathered from unrelated publications.
A part holds a random share of what one study measured. Substitutions count along the parent as printed.
Chain of UniProt O15294 (whole entry, looked up): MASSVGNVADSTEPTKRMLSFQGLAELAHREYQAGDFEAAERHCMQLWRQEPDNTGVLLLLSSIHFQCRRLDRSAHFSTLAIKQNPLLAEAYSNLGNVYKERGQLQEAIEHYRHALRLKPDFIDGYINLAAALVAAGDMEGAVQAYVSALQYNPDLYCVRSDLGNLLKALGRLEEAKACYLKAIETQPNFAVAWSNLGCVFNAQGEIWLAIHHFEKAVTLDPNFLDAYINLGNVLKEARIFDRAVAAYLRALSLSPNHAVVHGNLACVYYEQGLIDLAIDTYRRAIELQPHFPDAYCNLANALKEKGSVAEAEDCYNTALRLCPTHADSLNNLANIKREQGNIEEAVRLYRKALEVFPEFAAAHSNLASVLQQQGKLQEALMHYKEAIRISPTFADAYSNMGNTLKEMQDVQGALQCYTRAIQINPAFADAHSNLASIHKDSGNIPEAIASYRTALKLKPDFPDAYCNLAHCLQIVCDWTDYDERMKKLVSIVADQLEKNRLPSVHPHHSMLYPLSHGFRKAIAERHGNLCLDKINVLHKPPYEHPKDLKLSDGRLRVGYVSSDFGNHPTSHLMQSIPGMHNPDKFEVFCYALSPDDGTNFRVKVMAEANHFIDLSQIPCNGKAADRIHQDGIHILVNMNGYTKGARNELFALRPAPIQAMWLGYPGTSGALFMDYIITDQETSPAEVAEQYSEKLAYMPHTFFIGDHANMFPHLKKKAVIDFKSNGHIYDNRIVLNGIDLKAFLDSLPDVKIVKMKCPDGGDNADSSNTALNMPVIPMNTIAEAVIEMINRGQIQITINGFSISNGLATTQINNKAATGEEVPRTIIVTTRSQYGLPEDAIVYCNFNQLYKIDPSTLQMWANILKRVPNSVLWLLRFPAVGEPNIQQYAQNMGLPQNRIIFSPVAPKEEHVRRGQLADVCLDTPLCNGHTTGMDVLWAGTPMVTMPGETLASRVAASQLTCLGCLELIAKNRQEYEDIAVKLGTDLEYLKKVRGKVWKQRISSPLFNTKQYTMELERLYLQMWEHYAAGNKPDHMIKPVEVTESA

Series 1
Target: Prothrombin, mature alpha-thrombin (F2, Homo sapiens, UniProt P00734)
Method: aptamer microarray, sandwich
Molecule type: DNA with 2'F-ANA
Medium: in vitro
Concentration: 200 nM
Setting: whole 15-mer aptamer, many near background
Together with: Cy3 exosite-II aptamer, 400 nM
Reading: higher = stronger binding
Quantity: mean fluorescence intensity
Sequence: GGTTGGTGTGGTTGG
2'F-ANA at 2 3 5 7 8 10 12 15: 66.3 a.u.
2'F-ANA at 2 4 6 7 9 13 14 15: 73.2 a.u.
2'F-ANA at 1 2 10 12 13: 105 a.u.
2'F-ANA at 1 2 3 4 6 8 9 11 12 14: 69.8 a.u.
2'F-ANA at 3 5 7 9 12 14: 78.7 a.u.
2'F-ANA at 1 2 3 4 5 7 9 11 13: 48.8 a.u.
2'F-ANA at 1 2 3 4 5 6 7 11 12 13 14 15: 48.6 a.u.
2'F-ANA at 1 2 3 4 8 12 13: 333 a.u.

Series 2
Target: tungstate, free oxyanion
Method: microfluidic competitive inhibition
Medium: in vitro, cell-free expressed
Concentration: not given
Setting: derived from inhibition constants, unchanged parent 2230 nM
Reading: lower = stronger binding
Quantity: oxyanion analog dissociation constant
Starting sequence: PafA, mature enzyme, eGFP fusion (Elizabethkingia meningoseptica, UniProt Q9KJX5); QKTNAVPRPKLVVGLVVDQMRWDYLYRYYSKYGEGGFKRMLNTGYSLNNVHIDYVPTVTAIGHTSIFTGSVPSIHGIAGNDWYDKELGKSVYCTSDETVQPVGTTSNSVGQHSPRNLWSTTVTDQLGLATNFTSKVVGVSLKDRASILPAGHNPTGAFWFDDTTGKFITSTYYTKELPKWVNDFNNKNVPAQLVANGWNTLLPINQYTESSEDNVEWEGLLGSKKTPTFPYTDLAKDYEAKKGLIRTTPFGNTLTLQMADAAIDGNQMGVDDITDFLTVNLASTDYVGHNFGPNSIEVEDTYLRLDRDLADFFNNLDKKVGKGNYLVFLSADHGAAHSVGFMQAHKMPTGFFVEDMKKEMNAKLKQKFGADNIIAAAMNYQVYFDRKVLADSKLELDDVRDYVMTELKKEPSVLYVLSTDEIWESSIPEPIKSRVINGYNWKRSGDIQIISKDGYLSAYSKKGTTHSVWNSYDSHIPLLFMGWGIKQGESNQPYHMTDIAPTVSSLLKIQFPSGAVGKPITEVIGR
G138V: 1990 nM
I204V: 2310 nM
A60V: 7250 nM

Further values, each from its own experiment
PTBP1 (Homo sapiens, UniProt P26599)  interaction screen (MATR3 (Homo sapiens, UniProt P43243); cross-linking MS; hits only): cross-linked
QGDYMPFYQLRSKIT  enrichment fold change (UDP-N-acetylglucosamine--peptide N-acetylglucosaminyltransferase 110 kDa subunit (OGT, Homo sapiens, UniProt O15294); binding, phage display NGS; peptide; concentration not given; baseline: input library): 6.19
COQ3 (Homo sapiens, UniProt Q9NZJ6)  cross-linked residues (COQ6 (Homo sapiens, UniProt Q9Y2Z9); cross-linking MS; cell fractions; together with: DSSO): K196 to K64
UQCRQ (Homo sapiens, UniProt O14949)  cross-linked residues (UQCRC2 (Homo sapiens, UniProt P22695); cross-linking MS; cell fractions; together with: DMTMM): G2 to D153
NDUFB8 (Homo sapiens, UniProt O95169)  cross-linked residues (CYCS (Homo sapiens, UniProt P99999); cross-linking MS; cell fractions; together with: DSSO): K176 to K40

A few entries again (further values, each from its own experiment):
UQCRQ (Homo sapiens, UniProt O14949)  cross-linked residues (UQCRC2 (Homo sapiens, UniProt P22695); cross-linking MS; cell fractions; together with: DMTMM): G2 to D153
QGDYMPFYQLRSKIT  enrichment fold change (UDP-N-acetylglucosamine--peptide N-acetylglucosaminyltransferase 110 kDa subunit (OGT, Homo sapiens, UniProt O15294); binding, phage display NGS; peptide; concentration not given; baseline: input library): 6.19
